# Measured values collected from several papers.
# A part holds a random share of what one study measured.

# Sample 1
# Target: Centromere-binding protein 1, full length, His-tagged (CBF1, Saccharomyces cerevisiae, UniProt P17106, residues 1-351)
# Sequence of UniProt P17106 (whole entry, looked up): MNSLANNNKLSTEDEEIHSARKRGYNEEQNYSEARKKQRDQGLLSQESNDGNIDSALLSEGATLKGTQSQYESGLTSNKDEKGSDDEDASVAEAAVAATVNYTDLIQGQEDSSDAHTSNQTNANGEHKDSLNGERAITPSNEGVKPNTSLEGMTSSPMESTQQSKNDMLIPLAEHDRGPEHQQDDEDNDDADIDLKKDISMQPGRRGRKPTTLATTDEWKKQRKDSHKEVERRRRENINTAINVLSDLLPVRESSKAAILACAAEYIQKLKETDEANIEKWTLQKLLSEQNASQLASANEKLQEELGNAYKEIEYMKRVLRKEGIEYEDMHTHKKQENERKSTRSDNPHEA
# Technique: competition protein-binding microarray
# Form: double-stranded DNA, one strand shown
# Sample: in vitro
# Tested at: 2 µM
# Notes: whole 60-bp probe, lowest competitor level
# Added: Pho4 competitor, 0.05 µM
# Reading: higher = stronger binding
Sequence,fluorescence intensity [a.u.]
TACGACGAAGCTTTGCACGTGTAGGAAAGAGGAAATGTCTTGATTCGCTTGACGCTGCTG,862
ATAACGGTACTTATTTGCATGACGCTCATCAACCCTGTCTTGATTCGCTTGACGCTGCTG,109
CGAAATATTATACGTCAGGTGTATATCAAGTGCTCAGTCTTGATTCGCTTGACGCTGCTG,524
GGATGTCTTGTTTAGCACGTGACGGAGAACTGTGGCGTCTTGATTCGCTTGACGCTGCTG,7090

# Sample 2
# Target: Histone acetyltransferase KAT6A, both winged helices, GST fusion (KAT6A, Homo sapiens, UniProt Q92794, residues 1-181)
# Technique: protein binding microarray
# Form: double-stranded DNA, one strand shown
# Sample: in vitro
# Tested at: not given
# Notes: 8-mer, flanks averaged, mean of 2 arrays, mostly near background
# Baseline: not given
# Reading: higher = stronger binding
# Construct (chain): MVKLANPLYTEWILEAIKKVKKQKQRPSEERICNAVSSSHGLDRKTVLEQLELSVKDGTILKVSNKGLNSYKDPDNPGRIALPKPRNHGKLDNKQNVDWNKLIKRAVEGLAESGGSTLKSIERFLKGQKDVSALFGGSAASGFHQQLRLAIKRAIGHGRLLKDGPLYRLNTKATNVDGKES
Sequence,E-score
AAGGAGAA,-0.158
AGGTAACA,-0.201
CACTTAAG,0.108
ACCAAGGA,-0.0785
CCTATAAC,-0.18
CTCATAGC,-0.0864

# Sample 3
# Target: RNA binding protein fox-1 homolog 2, RRM domain, GST-SBP tag (RBFOX2, Homo sapiens, UniProt O43251-10, residues 100-194)
# Technique: RNA Bind-n-Seq
# Form: RNA
# Sample: in vitro
# Tested at: 365 nM
# Notes: natural RNA segment, single round, ends assumed
# Baseline: no-protein control
# Reading: higher = stronger binding
# Constant ends, left off below: GGGAGUUCUACAGUCCGACGAUC … UGGAAUUCUCGGGUGCCAA
# Residues (chain): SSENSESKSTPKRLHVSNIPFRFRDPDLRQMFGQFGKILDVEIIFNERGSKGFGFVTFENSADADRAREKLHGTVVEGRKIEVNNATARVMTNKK
Sequence,RBNS enrichment (R)
AGGGGAGAGAAGGCCUCAUCUCUCUAUAUUUAUACAUAACCCCGGGGAAGACACAGAGACUCGUACCUGCGCUGUUUGUGCCGCCGCUGCCUCUGGGCCCUCCCAGCACA,0.403
ACAAAAGAGCCCAAGUUCGCCUCCUACCUGCAUUGCUGACUUGAAUUCACAGUCGCCGAGUCUACCUAGCUUUCUUGGAAGCAGUCUAGCAAAAUUUCUAUUUGUACGUU,0.532
CUACGUGGGAACAUCCUGUGAGCAAGGUGGCCACGAAGAAUAGAAAUAUCCUGAGCUUUGAGUGUCCUUUCACAGAGUGAACAAAACUGGUGUGGUGUAGACACGGCUUC,0.411
CAGCAGGCAACCUGCCCGUCUGUACAAAAAACUCAAAGGGCUGAGAUGAACGUCUUUCCUCUCCUGCCUCCCAUGAGACAGUCUCCUAGGAAUUCUUGGGGAAGUUUGGC,0.224
ACCCUGGGAAACACACCAAUCACCAACUUGCUCAUGACAUUGCUUCAGCUCCCUGAGAAGUAGCUCUUCCUCCAGGGCAUGGAAGGAUGGGAGGCCAGCAGGACCCUGCC,0.791
GGGAGGGUUUUCGGGGGGUUCGGCGUCGCACCUUGGGGCCCCCCGCAGCCGUGUAGGGGGCCUCCCAUCUGCUAAGCGUUUUUCCGUUGAGCCGCUCCAAAAACACUAAG,0.308

# Other studies, line by line
Molecule,target,test,test system,conditions,how to read,measurement,value
"PhoQ, residues 284 288 289 292 302 303 TLSLKA","PhoP, residues 12 14 15 18 19 IFFTR (Escherichia coli, UniProt P23836)","Sort-seq, refers to: YFP reporter",E. coli,"PhoQ-PhoP variant library, added: 10 µM Mg2+","baseline: high Mg2+ state, higher = stronger signaling",fold induction,1.14
